{"data": "Results collected from several papers", "note": "A part holds a random share of what one study measured. Positions count from the first letter of the parent shown.", "sequence of UniProt Q13283 (whole entry, looked up)": "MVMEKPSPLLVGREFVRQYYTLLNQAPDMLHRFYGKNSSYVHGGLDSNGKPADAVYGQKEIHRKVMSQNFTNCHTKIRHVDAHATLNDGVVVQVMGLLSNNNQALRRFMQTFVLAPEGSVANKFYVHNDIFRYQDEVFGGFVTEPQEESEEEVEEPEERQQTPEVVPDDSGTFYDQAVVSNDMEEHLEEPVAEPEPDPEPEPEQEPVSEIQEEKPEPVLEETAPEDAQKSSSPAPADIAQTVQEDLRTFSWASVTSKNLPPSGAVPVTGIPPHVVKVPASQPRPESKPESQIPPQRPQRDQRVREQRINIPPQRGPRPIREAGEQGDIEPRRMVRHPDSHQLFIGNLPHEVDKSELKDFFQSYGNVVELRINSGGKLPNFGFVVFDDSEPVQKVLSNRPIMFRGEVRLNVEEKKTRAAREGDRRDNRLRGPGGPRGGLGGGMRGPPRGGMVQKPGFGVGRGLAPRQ"}
{"data": "Study 1", "target": "Interferon regulatory factor 5, full length, phosphomimetic (IRF5, Homo sapiens, UniProt Q13568-2, residues 1-514, K96S/S451D/S453D/S456D/S462D)", "method": "protein-binding microarray", "form": "double-stranded DNA, one strand shown", "medium": "in vitro", "tested at": "250 nM", "notes": "60-bp whole probe", "with": "salmon DNA 0.4 mg/ml", "baseline": "random background probes", "reading": "higher = stronger binding"}
{"Oligonucleotide": "GCCTAGCACTCATTCATGAAATTTTAGACTGTGCTAGTCTTGATTCGCTTGACGCTGCTG", "log fluorescence [z-score]": 0.56}
{"Oligonucleotide": "GCCTAGCACTTAGGACTGGTGTTTCGGTTAGTGCTAGTCTTGATTCGCTTGACGCTGCTG", "log fluorescence [z-score]": 6.78}
{"Oligonucleotide": "GCCTAGCACGACGGTATCGACACTGGTGACGTGCTAGTCTTGATTCGCTTGACGCTGCTG", "log fluorescence [z-score]": 1.91}
{"data": "Mixed results", "P1": "MICAL3 docking peptide (human); LQLRRQLSFSEDS; partner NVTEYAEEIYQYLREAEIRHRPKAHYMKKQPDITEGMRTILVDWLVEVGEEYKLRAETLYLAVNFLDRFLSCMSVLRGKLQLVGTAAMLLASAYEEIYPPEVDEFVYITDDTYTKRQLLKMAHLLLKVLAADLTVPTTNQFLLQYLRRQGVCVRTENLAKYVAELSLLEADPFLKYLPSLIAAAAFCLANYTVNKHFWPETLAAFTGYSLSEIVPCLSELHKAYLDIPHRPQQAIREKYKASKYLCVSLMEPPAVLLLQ"}
{"Substance": "GGGAGUUCUACAGUCCGACGAUCGCAGGAAGUAAAAACAAAUGGAAAUGCUUCGGAUAGUGGCAGGGGUGGGGAUUGCUAAGGAAAGGGUGGGAUGGGAGUGGGUAAAGAGUUUGGAAUUCUCGGGUGUCAAGG", "tested on": "Ras GTPase-activating protein-binding protein 1, full length (G3BP1, Homo sapiens, UniProt Q13283)", "test": "RNA Bind-n-Seq", "system": "RNA, in vitro", "conditions": "200 nM, whole 134-nt RNA, ends assumed, with: 150 mM KCl", "how to read": "baseline: input library, higher = stronger binding", "measurement": "log2 enrichment", "result": 1.04}
{"Substance": "P1 F9R", "tested on": "CCNA1, cyclin fold, Cln2 fusion (human)", "test": "yeast growth competition, sequencing", "system": "yeast", "conditions": "weak parent motif", "how to read": "baseline: not given, higher = stronger binding", "measurement": "normalised enrichment score", "result": 0.244}
{"Substance": "GUGGUGU", "tested on": "PABPC1L2, full length, GST fusion (mouse, UniProt A0ABA7IW68)", "test": "RNAcompete", "system": "RNA, in vitro", "conditions": "20 nM, 7-mer, probes averaged, single round", "how to read": "baseline: mean of 7-mers, higher = stronger binding", "measurement": "7-mer Z-score", "result": -0.0826}
{"Substance": "PhoQ, residues 284 288 289 292 302 303 TLSLKA", "tested on": "PhoP, residues 12 14 15 18 19 NYFTV (Escherichia coli, UniProt P23836)", "test": "Sort-seq, refers to: YFP reporter", "system": "E. coli", "conditions": "PhoQ-PhoP variant library, with: 10 µM Mg2+", "how to read": "baseline: high Mg2+ state, higher = stronger signaling", "measurement": "fold induction", "result": 2.33}
{"Substance": "GGGAGUUCUACAGUCCGACGAUCCUCAAGUCCUGUGCUACACAUCGUAUGUACCGAAUCGGUUGGUUGGGGUUGGGGAAAGUAUUAUGUUACGCCGUUCGGAUCUGCACUUCCUGGAAUUCUCGGGUGUCAAGG", "tested on": "Fragile X messenger ribonucleoprotein 1, C-terminal low-complexity region (Fmr1, Mus musculus, UniProt P35922)", "test": "RNA Bind-n-Seq", "system": "RNA, in vitro", "conditions": "200 nM, whole 134-nt RNA, ends assumed, with: 150 mM KCl", "how to read": "baseline: input library, higher = stronger binding", "measurement": "log2 enrichment", "result": -0.077}
{"Substance": "HNRNPA2B1 (Homo sapiens, UniProt P22626)", "tested on": "RBMX (Homo sapiens, UniProt P38159)", "test": "cross-linking MS", "conditions": "hits only", "measurement": "interaction screen", "result": "cross-linked"}
{"note": "For quick reference, copied from above (mixed results):"}
{"Substance": "GUGGUGU", "tested on": "PABPC1L2, full length, GST fusion (mouse, UniProt A0ABA7IW68)", "test": "RNAcompete", "system": "RNA, in vitro", "conditions": "20 nM, 7-mer, probes averaged, single round", "how to read": "baseline: mean of 7-mers, higher = stronger binding", "measurement": "7-mer Z-score", "result": -0.0826}
